Published values gathered from unrelated publications.
Numbered parts are unrelated; each lists some results of a single study.
Sequence of UniProt Q8WXR4 (whole entry, looked up): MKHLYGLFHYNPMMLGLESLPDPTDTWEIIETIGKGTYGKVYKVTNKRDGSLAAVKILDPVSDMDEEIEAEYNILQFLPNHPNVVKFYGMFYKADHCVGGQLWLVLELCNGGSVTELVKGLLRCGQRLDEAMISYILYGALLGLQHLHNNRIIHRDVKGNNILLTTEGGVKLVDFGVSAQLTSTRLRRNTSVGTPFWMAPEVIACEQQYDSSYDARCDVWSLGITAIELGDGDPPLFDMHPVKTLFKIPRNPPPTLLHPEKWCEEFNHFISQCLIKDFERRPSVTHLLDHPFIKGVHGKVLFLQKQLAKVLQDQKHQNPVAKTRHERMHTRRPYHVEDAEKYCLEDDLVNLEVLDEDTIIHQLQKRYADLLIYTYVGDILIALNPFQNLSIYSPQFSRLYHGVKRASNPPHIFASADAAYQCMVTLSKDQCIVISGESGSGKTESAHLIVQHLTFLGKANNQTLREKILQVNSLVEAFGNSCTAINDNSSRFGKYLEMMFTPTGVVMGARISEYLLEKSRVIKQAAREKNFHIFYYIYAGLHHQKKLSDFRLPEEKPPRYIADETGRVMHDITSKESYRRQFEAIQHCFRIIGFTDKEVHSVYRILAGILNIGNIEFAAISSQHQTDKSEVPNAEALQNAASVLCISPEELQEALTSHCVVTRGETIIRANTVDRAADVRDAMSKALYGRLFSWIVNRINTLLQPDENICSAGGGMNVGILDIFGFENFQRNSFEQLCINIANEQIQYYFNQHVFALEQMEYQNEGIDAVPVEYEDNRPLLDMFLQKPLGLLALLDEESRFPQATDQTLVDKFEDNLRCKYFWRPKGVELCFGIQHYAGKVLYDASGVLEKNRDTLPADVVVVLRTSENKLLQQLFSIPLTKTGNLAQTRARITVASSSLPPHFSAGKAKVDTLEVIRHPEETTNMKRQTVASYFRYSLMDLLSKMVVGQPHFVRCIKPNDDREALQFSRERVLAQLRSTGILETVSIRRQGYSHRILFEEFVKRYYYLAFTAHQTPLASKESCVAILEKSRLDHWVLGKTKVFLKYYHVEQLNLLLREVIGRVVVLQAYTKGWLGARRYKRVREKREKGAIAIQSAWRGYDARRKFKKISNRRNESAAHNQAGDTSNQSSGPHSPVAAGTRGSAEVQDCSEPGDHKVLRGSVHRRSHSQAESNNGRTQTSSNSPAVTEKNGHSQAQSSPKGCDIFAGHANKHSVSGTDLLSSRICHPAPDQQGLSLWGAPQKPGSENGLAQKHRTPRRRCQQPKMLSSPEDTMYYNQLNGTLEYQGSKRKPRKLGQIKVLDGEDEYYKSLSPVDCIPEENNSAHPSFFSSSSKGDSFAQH
Sequence of UniProt P49674 (whole entry, looked up): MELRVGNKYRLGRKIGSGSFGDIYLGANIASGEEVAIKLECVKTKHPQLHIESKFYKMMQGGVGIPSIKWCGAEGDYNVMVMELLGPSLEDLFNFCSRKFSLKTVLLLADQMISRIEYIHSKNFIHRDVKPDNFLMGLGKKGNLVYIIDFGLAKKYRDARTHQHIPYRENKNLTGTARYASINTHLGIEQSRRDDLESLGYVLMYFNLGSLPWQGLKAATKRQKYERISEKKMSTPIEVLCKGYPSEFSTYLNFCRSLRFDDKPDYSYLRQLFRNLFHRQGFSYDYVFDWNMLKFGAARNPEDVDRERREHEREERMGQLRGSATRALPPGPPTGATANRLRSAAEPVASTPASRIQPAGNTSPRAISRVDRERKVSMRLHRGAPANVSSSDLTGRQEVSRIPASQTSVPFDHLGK
Sequence of UniProt O14976 (whole entry, looked up): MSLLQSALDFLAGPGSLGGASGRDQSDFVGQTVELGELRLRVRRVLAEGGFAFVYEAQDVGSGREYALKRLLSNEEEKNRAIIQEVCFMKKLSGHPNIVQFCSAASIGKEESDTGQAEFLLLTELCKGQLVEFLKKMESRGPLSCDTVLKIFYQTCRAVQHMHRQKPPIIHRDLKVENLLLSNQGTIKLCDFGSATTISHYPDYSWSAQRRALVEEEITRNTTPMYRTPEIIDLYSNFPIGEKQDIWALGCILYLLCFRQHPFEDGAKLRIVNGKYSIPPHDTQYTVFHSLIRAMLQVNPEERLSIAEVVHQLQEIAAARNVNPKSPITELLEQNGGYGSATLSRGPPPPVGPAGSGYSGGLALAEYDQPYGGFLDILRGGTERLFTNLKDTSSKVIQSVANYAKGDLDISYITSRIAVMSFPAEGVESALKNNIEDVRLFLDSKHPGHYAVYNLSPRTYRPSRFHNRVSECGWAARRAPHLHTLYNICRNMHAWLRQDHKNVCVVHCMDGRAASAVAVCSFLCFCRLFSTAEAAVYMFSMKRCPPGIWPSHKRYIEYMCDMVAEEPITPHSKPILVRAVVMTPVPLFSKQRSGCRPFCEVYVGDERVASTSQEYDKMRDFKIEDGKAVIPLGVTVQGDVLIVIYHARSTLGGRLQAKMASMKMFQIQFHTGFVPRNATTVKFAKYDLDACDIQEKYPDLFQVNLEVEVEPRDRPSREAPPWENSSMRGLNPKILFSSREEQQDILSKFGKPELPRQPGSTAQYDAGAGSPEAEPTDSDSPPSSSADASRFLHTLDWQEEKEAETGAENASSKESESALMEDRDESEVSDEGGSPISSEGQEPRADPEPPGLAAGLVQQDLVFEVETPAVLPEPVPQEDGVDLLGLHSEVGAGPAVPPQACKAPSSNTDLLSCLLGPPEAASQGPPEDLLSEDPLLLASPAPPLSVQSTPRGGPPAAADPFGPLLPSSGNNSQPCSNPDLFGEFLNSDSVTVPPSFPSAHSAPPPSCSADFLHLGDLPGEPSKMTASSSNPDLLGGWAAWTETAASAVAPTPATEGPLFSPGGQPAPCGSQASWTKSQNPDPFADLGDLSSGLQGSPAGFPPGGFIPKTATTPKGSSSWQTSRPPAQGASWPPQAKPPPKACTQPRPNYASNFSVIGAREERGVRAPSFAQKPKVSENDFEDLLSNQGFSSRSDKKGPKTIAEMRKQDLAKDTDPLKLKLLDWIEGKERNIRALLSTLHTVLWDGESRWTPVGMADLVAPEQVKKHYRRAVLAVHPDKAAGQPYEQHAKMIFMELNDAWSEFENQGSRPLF
Sequence of UniProt P04629 (whole entry, looked up): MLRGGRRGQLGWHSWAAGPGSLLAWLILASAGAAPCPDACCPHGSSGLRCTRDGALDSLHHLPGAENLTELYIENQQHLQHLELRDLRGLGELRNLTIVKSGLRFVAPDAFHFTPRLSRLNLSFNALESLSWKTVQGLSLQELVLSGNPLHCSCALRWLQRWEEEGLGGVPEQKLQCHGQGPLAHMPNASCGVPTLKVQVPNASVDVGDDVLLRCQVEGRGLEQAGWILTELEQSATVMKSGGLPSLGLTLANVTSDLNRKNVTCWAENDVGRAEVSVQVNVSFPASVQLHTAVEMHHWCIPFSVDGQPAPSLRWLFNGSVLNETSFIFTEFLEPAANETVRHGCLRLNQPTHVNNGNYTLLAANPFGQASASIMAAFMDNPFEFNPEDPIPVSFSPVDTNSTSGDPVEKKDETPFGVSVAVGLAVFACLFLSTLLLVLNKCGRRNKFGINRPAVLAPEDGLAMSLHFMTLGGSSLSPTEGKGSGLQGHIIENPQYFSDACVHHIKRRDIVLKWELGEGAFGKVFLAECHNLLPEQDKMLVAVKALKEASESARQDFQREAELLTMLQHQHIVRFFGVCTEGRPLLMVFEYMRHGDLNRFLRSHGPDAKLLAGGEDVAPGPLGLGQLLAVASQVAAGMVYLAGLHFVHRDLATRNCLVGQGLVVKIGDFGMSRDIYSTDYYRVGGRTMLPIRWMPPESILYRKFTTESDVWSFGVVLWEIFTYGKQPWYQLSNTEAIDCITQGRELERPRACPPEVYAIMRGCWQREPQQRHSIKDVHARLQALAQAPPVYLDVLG
Sequence of UniProt P52333 (whole entry, looked up): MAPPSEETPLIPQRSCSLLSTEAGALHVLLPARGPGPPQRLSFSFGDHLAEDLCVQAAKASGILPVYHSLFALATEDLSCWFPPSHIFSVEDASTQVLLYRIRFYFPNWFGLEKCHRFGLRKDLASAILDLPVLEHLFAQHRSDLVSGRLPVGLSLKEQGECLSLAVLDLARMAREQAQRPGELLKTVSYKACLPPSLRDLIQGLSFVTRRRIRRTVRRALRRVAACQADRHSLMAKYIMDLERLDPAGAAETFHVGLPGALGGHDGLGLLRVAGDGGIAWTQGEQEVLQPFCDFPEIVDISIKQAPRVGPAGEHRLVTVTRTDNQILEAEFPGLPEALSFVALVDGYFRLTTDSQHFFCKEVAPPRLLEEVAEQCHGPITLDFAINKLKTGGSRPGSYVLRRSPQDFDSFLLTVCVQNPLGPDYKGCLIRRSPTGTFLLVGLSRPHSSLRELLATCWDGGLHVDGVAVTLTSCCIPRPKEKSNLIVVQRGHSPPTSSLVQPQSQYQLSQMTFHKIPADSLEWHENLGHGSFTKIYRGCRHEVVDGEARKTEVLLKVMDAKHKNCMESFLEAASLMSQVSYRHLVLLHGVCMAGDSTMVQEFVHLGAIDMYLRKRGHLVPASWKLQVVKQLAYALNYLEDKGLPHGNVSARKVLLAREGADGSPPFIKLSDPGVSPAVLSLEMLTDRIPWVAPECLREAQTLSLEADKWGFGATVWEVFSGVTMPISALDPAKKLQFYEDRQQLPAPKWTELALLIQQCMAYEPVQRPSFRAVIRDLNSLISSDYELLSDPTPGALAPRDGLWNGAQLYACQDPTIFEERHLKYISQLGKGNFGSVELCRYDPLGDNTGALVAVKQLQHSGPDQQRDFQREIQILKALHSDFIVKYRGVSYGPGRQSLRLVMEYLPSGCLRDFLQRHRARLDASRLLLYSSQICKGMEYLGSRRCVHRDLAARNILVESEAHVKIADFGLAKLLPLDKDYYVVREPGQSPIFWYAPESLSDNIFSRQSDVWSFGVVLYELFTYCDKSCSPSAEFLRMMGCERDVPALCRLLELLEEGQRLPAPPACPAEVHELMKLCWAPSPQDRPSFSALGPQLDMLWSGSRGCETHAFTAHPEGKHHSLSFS

Block 1 — tested at: 1 µM
SMILES: Cc1ccc(NC(=O)c2ccnc(C(F)(F)F)c2)cc1-c1cc(OCCO)nc(N2CCOCC2)c1
target | technique | measured | notes | relative to | remaining binding [%]
Cyclin-dependent kinase 19 (CDK19, Homo sapiens, UniProt Q9BWU1) | competitive binding panel | CDK11 |  | vehicle | 98
Serine/threonine-protein kinase Nek7 (NEK7, Homo sapiens, UniProt Q8TDX7) | competitive binding panel |  |  | vehicle | 100
Serine/threonine-protein kinase Chk1 (CHEK1, Homo sapiens, UniProt O14757) | competitive binding panel |  |  | vehicle | 100
Activin receptor type-1-like (ACVRL1, Homo sapiens, UniProt P37023) | competitive binding panel |  |  | vehicle | 100
Receptor-type tyrosine-protein kinase FLT3 (FLT3, Homo sapiens, UniProt P36888) | competitive binding panel |  |  | vehicle | 97
Dual specificity mitogen-activated protein kinase kinase 2 (MAP2K2, Homo sapiens, UniProt P36507) | competitive binding panel | MEK2 |  | vehicle | 89
Mitogen-activated protein kinase 12 (MAPK12, Homo sapiens, UniProt P53778) | competitive binding, scanMAX |  | p38-gamma, 1000 nM |  | 96
High affinity nerve growth factor receptor (NTRK1, Homo sapiens, UniProt P04629) | competitive binding |  | TRKA |  | 94
Myosin-IIIb (MYO3B, Homo sapiens, UniProt Q8WXR4) | competitive binding panel |  |  | vehicle | 100
Serine/threonine-protein kinase RIO1 (RIOK1, Homo sapiens, UniProt Q9BRS2) | competitive binding panel |  |  | vehicle | 98

Block 2 — observed: acetyl-histone H4 peptide binding; technique: AlphaScreen displacement; tested at: 50 µM
Target: Bromodomain-containing protein 4, BD1 (BRD4, Homo sapiens, UniProt O60885)
Compound | inhibition [%]
Cc1cc(O)nc(SCC(=O)Nc2nnc(SCC(N)=O)s2)n1 | 10.7
CC(C)n1cnc2c(NCc3ccccc3)nc(NCCCO)nc21 | 24.8
O=C(CSc1ccc2nnc(-c3ccc(Cl)cc3)n2n1)NCC1CCCO1 (stereo not shown) | 0.9
COc1ccc(COc2ccc(Cc3cnc(N)nc3N)cc2OC)cc1 | 24.7
COc1ccc(-c2[nH]c3ncccc3c2CN2CCN(C)CC2)cc1 | 27.2
CCOc1ccc(-c2csc3nc[nH]c(=O)c23)cc1 | 11.9
CCOC(=O)CNC(=O)CSc1ccc2nnc(-c3cccc(F)c3)n2n1 | 12.4
CCN(CC)CCNc1nc(-c2cccc(OC)c2O)nc2ccccc12 | 51.6

Block 3 — tested at: 1 µM
SMILES: C[C@H](NC(=O)c1cnc2n1[C@](C)(Cc1ccc(C#N)cc1)C(=O)N2c1cc(Cl)c(F)c(Cl)c1)C(=O)NC1(c2ccccn2)CC1
target | observed | technique | remaining binding [%]
Serine/threonine-protein kinase SIK1 (SIK1, Homo sapiens, UniProt P57059) |  | competition binding | 100
Macrophage colony-stimulating factor 1 receptor, autoinhibited (CSF1R, Homo sapiens, UniProt P07333) | cell-free assay | competition with immobilised ligand | 100
Myosin-IIIb (MYO3B, Homo sapiens, UniProt Q8WXR4) | binding | competition with immobilised ligand | 100
Ephrin type-B receptor 2 (EPHB2, Homo sapiens, UniProt P29323) | cell-free assay | competition with immobilised ligand | 100
Serine/threonine-protein kinase TNNI3K (TNNI3K, Homo sapiens, UniProt Q59H18) | cell-free assay | competition with immobilised ligand | 65
Serine/threonine-protein kinase WNK4 (WNK4, Homo sapiens, UniProt Q96J92) | cell-free assay | competition with immobilised ligand | 100
Receptor-type tyrosine-protein kinase FLT3 (FLT3, Homo sapiens, UniProt P36888, D835V) | cell-free assay | competition with immobilised ligand | 100
Tyrosine-protein kinase ABL1, phosphorylated (ABL1, Homo sapiens, UniProt P00519, Y253F) | cell-free assay | competition with immobilised ligand | 100
Serine/threonine-protein kinase PAK 1 (PAK1, Homo sapiens, UniProt Q13153) | cell-free assay | competition with immobilised ligand | 95
Calcium/calmodulin-dependent protein kinase kinase 2 (CAMKK2, Homo sapiens, UniProt Q96RR4) | cell-free assay | competition with immobilised ligand | 100
Receptor-type tyrosine-protein kinase FLT3 (FLT3, Homo sapiens, UniProt P36888, ITD) | cell-free assay | competition with immobilised ligand | 100
Casein kinase I isoform epsilon (CSNK1E, Homo sapiens, UniProt P49674) | cell-free assay | competition with immobilised ligand | 82
Tyrosine-protein kinase JAK3, JH1 (JAK3, Homo sapiens, UniProt P52333) | cell-free assay | competition with immobilised ligand | 100
Leukocyte tyrosine kinase receptor (LTK, Homo sapiens, UniProt P29376) | cell-free assay | competition with immobilised ligand | 100
Serine/threonine-protein kinase 38-like (STK38L, Homo sapiens, UniProt Q9Y2H1) | cell-free assay | competition with immobilised ligand | 49
Cyclin-dependent kinase 4, with cyclin D3 (CDK4, Homo sapiens, UniProt P11802) | cell-free assay | competition with immobilised ligand | 100
Cyclin-G-associated kinase (GAK, Homo sapiens, UniProt O14976) | cell-free assay | competition with immobilised ligand | 92
Aurora kinase B (AURKB, Homo sapiens, UniProt Q96GD4) | cell-free assay | competition with immobilised ligand | 100
Death-associated protein kinase 3 (DAPK3, Homo sapiens, UniProt O43293) | cell-free assay | competition with immobilised ligand | 97
Serine/threonine-protein kinase RIO3 (RIOK3, Homo sapiens, UniProt O14730) | cell-free assay | competition with immobilised ligand | 100

Block 4 — cell line: HaCaT; tested at: 100 µM; time: 18 h
Compound | viability [%]
C[C@H](CCC(=O)O)[C@H]1CC[C@H]2[C@@H]3CC[C@@H]4C[C@H](O)CC[C@]4(C)[C@H]3C[C@H](O)[C@]12C | 94.4
C[C@]12CC[C@@H]3c4ccc(OS(=O)(=O)O)cc4CC[C@H]3[C@@H]1CCC2=O | 108
C[C@H](N)[C@H](O)c1cccc(O)c1 | 111
NC12CC3CC(CC(C3)C1)C2 | 98.3
CC[C@@H]1/C=C(\C)C[C@H](C)C[C@H](OC)[C@H]2O[C@@](O)(C(=O)C(=O)N3CCCC[C@H]3C(=O)O[C@H](/C(C)=C/[C@@H]3CC[C@H](Cl)[C@H](OC)C3)[C@H](C)[C@@H](O)CC1=O)[C@H](C)C[C@@H]2OC | 77.3
COc1cc2ccc(=O)oc2cc1O | 68.5
O=C(O)Cc1ccc(-c2ccccc2)cc1 | 107
CC[C@H]1OC(=O)[C@H](C)[C@@H](O[C@H]2C[C@@](C)(OC)[C@@H](O)[C@H](C)O2)[C@H](C)[C@@H](O[C@@H]2O[C@H](C)C[C@H](N(C)C)[C@H]2O)[C@](C)(O)C[C@@H](C)CN(C)[C@H](C)[C@@H](O)[C@]1(C)O | 117

A few entries again (block 1):
target | technique | measured | notes | relative to | remaining binding [%]
Receptor-type tyrosine-protein kinase FLT3 (FLT3, Homo sapiens, UniProt P36888) | competitive binding panel |  |  | vehicle | 97
Dual specificity mitogen-activated protein kinase kinase 2 (MAP2K2, Homo sapiens, UniProt P36507) | competitive binding panel | MEK2 |  | vehicle | 89
Mitogen-activated protein kinase 12 (MAPK12, Homo sapiens, UniProt P53778) | competitive binding, scanMAX |  | p38-gamma, 1000 nM |  | 96
High affinity nerve growth factor receptor (NTRK1, Homo sapiens, UniProt P04629) | competitive binding |  | TRKA |  | 94
Myosin-IIIb (MYO3B, Homo sapiens, UniProt Q8WXR4) | competitive binding panel |  |  | vehicle | 100
